Assay results pooled from the literature.
Compare with care: the assays were run in different laboratories. ± gives the spread as reported.

`N=C(N)NCCC[C@@H]1NC(=O)[C@H](CCCCNC(=O)CCOCCOCCOCCOCCNC(=O)CC[C@H](NC(=O)CCOCCOCCOCCOCCNC(=O)CC[C@H](NC(=O)CN2CCN(CC(=O)O)CCN(CC(=O)O)CCN(CC(=O)O)CC2)C(=O)NCCOCCOCCOCCOCCC(=O)N[C@@H](CCC(=O)NCCOCCOCCOCCOCCC(=O)NCCCC[C@@H]2NC(=O)[C@@H](Cc3ccccc3)NC(=O)[C@H](CC(=O)O)NC(=O)CNC(=O)[C@H](CCCNC(=N)N)NC2=O)C(=O)NCCOCCOCCOCCOCCC(=O)NCCCC[C@@H]2NC(=O)[C@@H](Cc3ccccc3)NC(=O)[C@H](CC(=O)O)NC(=O)CNC(=O)[C@H](CCCNC(=N)N)NC2=O)C(=O)NCCOCCOCCOCCOCCC(=O)NCCCC[C@@H]2NC(=O)[C@@H](Cc3ccccc3)NC(=O)[C@H](CC(=O)O)NC(=O)CNC(=O)[C@H](CCCNC(=N)N)NC2=O)NC(=O)[C@@H](Cc2ccccc2)NC(=O)[C@H](CC(=O)O)NC(=O)CNC1=O` [indium-111 labelled] has a tissue uptake of 0.1 %ID/g (athymic nude mouse U-87 MG xenograft, eyes; intravenous, 1 h, with: RGD2 co-injected 14 mg/kg).
The tissue uptake of `CCCC[C@H](NC(=O)[C@H](Cc1cccs1)NC(=O)[C@H](Cc1c[nH]cn1)NC(=O)CCNC(=O)[C@@H](NC(=O)[C@H](C)NC(=O)[C@H](Cc1c[nH]c2ccccc12)NC(=O)[C@H](CCC(N)=O)NC(=O)[C@H](Cc1cccs1)NC(=O)CN1CCC(NC(=O)CN(CCN(CCN(CC(=O)O)CC(=O)O)CC(=O)O)CC(=O)O)CC1)C(C)C)C(N)=O` [indium-111 labelled] is reported as 0.4 ± 0.1 %ID/g (Swiss nu/nu mouse, male, PC-3 tumour xenograft, tumour; intravenous, 10 pmol, 24 h).
The tissue uptake of `CCCC[C@H](NC(=O)CCCCCCCNC(=O)c1ccc(NN)nc1)C(=O)N[C@H]1CC(=O)NCCCC[C@@H](C(N)=O)NC(=O)[C@H](Cc2c[nH]c3ccccc23)NC(=O)[C@H](CCCNC(=N)N)NC(=O)[C@@H](Cc2ccccc2)NC(=O)[C@H](Cc2c[nH]cn2)NC1=O` [technetium-99m labelled] is reported as 84.5 ± 4.8 %ID (C57 mouse, B16/F1 melanoma, urine; intravenous, 0.037 MBq, 4 h).
`N=C(N)NCCC[C@@H]1NC(=O)[C@H](CC(=O)NC23CNCCNCC(N)(CNCCNC2)CNCCNC3)NC(=O)[C@@H](Cc2ccccc2)NC(=O)[C@H](CC(=O)O)NC(=O)CNC1=O` [copper-64 labelled] has a tissue uptake of 2.63 ± 0.53 %ID/g (Nu/Nu mouse, male, tumour-bearing, liver; intravenous, 10 µCi, 2 h).
The tissue uptake of `N=C(N)NCCC[C@@H]1NC(=O)[C@H](CCCCNC(=O)CNC(=O)CNC(=O)CNC(=O)c2ccc(NN=Cc3ccccc3S(=O)(=O)O)nc2)NC(=O)[C@@H](Cc2ccccc2)NC(=O)[C@H](CC(=O)O)NC(=O)CNC1=O` [technetium-99m labelled] is reported as 1.89 ± 0.42 %ID/g (athymic nu/nu mouse, female, U-87 MG glioma xenograft, muscle; intravenous, 30 min).
With `CCCC[C@H](NC(=O)CNC(=O)CNC(=O)c1ccc(NN)nc1)C(=O)N[C@H]1CC(=O)NCCCC[C@@H](C(N)=O)NC(=O)[C@H](Cc2c[nH]c3ccccc23)NC(=O)[C@H](CCCNC(=N)N)NC(=O)[C@@H](Cc2ccccc2)NC(=O)[C@H](Cc2c[nH]cn2)NC1=O` [technetium-99m labelled] the tissue uptake was 13.8 ± 3.49 %ID/g (C57 mouse, B16/F1 melanoma-bearing, tumor; intravenous, 0.5 h).
The tissue uptake of `CSCC[C@H](NC(=O)[C@H](CC(C)C)NC(=O)[C@H](Cc1c[nH]cn1)NC(=O)CNC(=O)[C@@H](NC(=O)[C@H](C)NC(=O)[C@H](Cc1c[nH]c2ccccc12)NC(=O)[C@H](CCC(N)=O)NC(=O)[C@H](CC(N)=O)NC(=O)CNC(=O)[C@H](Cc1ccc(O)cc1)NC(=O)[C@H](CCCNC(=N)N)NC(=O)[C@H](CCC(N)=O)NC(=O)[C@@H]1CCCN1C(=O)CN1CCN(CC(=O)O)CCN(CC(=O)O)CCN(CC(=O)O)CC1)C(C)C)C(N)=O` [indium-111 labelled] is reported as 9 ± 2.5 %ID/g (Swiss nu/nu mouse, male, PC-3 tumour xenograft, pancreas; intravenous, 10 pmol, 1 h).
`CSCC[C@H](NC(=O)[C@H](CC(C)C)NC(=O)[C@H](Cc1c[nH]cn1)NC(=O)CNC(=O)[C@@H](NC(=O)[C@H](C)NC(=O)[C@H](Cc1c[nH]c2ccccc12)NC(=O)[C@H](CCC(N)=O)NC(=O)CCCCCNC(=O)CNC(=O)CNC(=O)CNC(=O)CSC(C)=O)C(C)C)C(N)=O` [technetium-99m labelled] gave a tissue uptake of 0.94 ± 0.27 %ID/g (nude mouse, PC-3 xenograft, stomach; 30 min).
The tissue uptake of `N=C(N)NCCC[C@@H]1NC(=O)[C@H](CCCCNC(=O)CNC(=O)CNC(=O)CNC(=O)CC[C@H](NC(=O)CNC(=O)CNC(=O)CNC(=O)c2ccc(NN=Cc3ccccc3S(=O)(=O)O)nc2)C(=O)NCC(=O)NCC(=O)NCC(=O)NCCCC[C@@H]2NC(=O)[C@@H](Cc3ccccc3)NC(=O)[C@H](CC(=O)O)NC(=O)CNC(=O)[C@H](CCCNC(=N)N)NC2=O)NC(=O)[C@@H](Cc2ccccc2)NC(=O)[C@H](CC(=O)O)NC(=O)CNC1=O` [technetium-99m labelled] is reported as 7.85 ± 0.94 %ID/g (athymic nu/nu mouse, female, MDA-MB-435 xenograft, tumour; intravenous, 2 µCi, 60 min).

For quick reference, copied from above:
With `CCCC[C@H](NC(=O)CNC(=O)CNC(=O)c1ccc(NN)nc1)C(=O)N[C@H]1CC(=O)NCCCC[C@@H](C(N)=O)NC(=O)[C@H](Cc2c[nH]c3ccccc23)NC(=O)[C@H](CCCNC(=N)N)NC(=O)[C@@H](Cc2ccccc2)NC(=O)[C@H](Cc2c[nH]cn2)NC1=O` [technetium-99m labelled] the tissue uptake was 13.8 ± 3.49 %ID/g (C57 mouse, B16/F1 melanoma-bearing, tumor; intravenous, 0.5 h).
